Measured values gathered from unrelated publications.
A part holds a random share of what one study measured.
Sequence of UniProt Q8WU08 (whole entry, looked up): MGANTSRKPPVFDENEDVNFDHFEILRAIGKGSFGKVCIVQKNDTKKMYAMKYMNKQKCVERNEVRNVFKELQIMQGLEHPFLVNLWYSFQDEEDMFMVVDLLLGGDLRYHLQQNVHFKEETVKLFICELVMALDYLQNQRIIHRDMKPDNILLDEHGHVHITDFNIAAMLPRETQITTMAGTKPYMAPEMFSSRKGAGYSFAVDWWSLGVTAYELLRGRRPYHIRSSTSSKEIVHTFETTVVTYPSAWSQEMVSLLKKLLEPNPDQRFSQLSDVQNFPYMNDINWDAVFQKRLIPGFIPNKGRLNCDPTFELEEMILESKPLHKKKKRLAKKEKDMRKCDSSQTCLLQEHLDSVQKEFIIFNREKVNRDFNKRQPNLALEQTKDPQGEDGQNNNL
Sequence of UniProt Q99759 (whole entry, looked up): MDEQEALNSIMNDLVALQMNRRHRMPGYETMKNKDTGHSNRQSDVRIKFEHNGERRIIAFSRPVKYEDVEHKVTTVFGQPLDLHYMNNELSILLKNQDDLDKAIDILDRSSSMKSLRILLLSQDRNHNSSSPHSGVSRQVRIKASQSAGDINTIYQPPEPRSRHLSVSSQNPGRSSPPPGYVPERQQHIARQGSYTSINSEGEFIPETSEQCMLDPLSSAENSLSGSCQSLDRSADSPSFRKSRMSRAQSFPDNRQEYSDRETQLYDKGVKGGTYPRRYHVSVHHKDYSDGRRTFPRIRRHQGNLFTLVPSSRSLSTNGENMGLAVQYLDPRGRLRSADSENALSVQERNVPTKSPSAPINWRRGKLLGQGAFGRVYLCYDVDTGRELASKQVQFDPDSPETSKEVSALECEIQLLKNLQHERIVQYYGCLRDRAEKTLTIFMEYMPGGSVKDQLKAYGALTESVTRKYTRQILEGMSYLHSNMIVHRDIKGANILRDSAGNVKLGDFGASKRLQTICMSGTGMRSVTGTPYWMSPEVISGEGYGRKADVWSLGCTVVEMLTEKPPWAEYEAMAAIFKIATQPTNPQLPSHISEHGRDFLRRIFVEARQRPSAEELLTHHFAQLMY

Sample 1 — technique: protein binding microarray; form: double-stranded DNA, one strand shown; sample: in vitro; tested at: not given; relative to: not given; direction: higher = stronger binding
Target: Histone acetyltransferase KAT6A, winged helix 1, GST fusion (KAT6A, Homo sapiens, UniProt Q92794, residues 1-85)
Notes: 8-mer, flanks averaged, mean of 2 arrays, mostly near background
Target sequence (chain): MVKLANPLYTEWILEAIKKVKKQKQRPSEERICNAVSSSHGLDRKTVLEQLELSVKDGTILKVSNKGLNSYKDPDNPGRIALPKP
| Oligonucleotide | E-score |
| --- | --- |
| CTCGGCAC | 0.217 |
| GACTTCAC | -0.0796 |
| AGAAAAGA | -0.12 |
| GCAGAGCA | -0.0848 |
| ACAATTTA | -0.165 |
| GCAGATGC | -0.0984 |
| GAAAAAGC | 0.0852 |
| AAAAACAC | -0.141 |

Sample 2 — technique: protein-binding microarray; form: double-stranded DNA, one strand shown; sample: in vitro; tested at: 940 nM top; notes: 60-bp whole probe; added: salmon DNA 0.4 mg/ml; relative to: random background probes; direction: higher = stronger binding; all sequences stand within: GCCTAGCAC … GTCTTGATTCGCTTGACGCTGCTG
Target: Interferon regulatory factor 5, full length, phosphomimetic (IRF5, Homo sapiens, UniProt Q13568-2, residues 1-514, S451D/S453D/S456D/S462D)
| Oligonucleotide | fitted relative affinity [z-score] |
| --- | --- |
| TCACTTTTCGCTTTCTTACTGTGCTAG | 3.16 |
| GACGATTTCAGTTTCGTGACGTGCTAG | 2.58 |
| TTAGGTTTTGGTTCCGGTTAGTGCTAG | 5.64 |
| GACGGTATCGTCACTGGGGACGTGCTA | 1.72 |
| GACGACATCGGGTTTCGAGACGTGCTA | 1.6 |
| CTAGGTCTCCTTCTCCTTTAGTGCTAG | 0.533 |
| TTAGGACTTGACACTGGGTTAGTGCTA | -0.469 |
| GACGGTCTCGGTCCCGGGACGTGCTAG | 3.08 |

Mixed results
| SMILES | target or system | observed | technique | sample | tested at | quantity | value |
| --- | --- | --- | --- | --- | --- | --- | --- |
| Nc1cnc(N2CCc3cc(S(=O)(=O)Nc4c(F)cc(Cl)cc4F)cc(N4CCCC4=O)c32)nc1 | Mitogen-activated protein kinase kinase kinase 3 (MAP3K3, Homo sapiens, UniProt Q99759) | cell-free assay | competition with immobilised ligand |  | 1 µM | remaining binding | 97% |
| CCC[C@H]1NC(=O)CSC[C@@H](C(=O)OCC)N(C)C(=O)[C@H](CC(C)C)NC(=O)[C@@H](C)N(C)C(=O)[C@@H](CC(C)C)NC(=O)[C@H](C)N(C)C(=O)[C@@H]2CCCN2C(=O)[C@H](CC(C)C)NC(=O)CN(CCC)C1=O |  |  |  | hydrocarbon/water |  | logD | 0.711 |
| CCCOc1ccc([C@H]2[C@H](C(=O)O)[C@@H](c3ccc4c(c3)OCO4)CN2CC(=O)Nc2c(CC)cccc2CC)cc1 | Serine/threonine-protein kinase 32A (STK32A, Homo sapiens, UniProt Q8WU08) | cell-free assay | competition with immobilised ligand |  | 1 µM | remaining binding | 93% |

A few entries again (sample 1):
| Oligonucleotide | E-score |
| --- | --- |
| GCAGAGCA | -0.0848 |
| CTCGGCAC | 0.217 |
| AAAAACAC | -0.141 |
